# Published values of several laboratories.
# Parts stem from different laboratories: compare values within a part only.

# Block 1
# Target: Myc proto-oncogene protein, bHLH-zipper, MAX partner unstated (MYC, Homo sapiens, UniProt P01106, residues 368-449)
# UniProt P01106, sequence (368-449, looked up): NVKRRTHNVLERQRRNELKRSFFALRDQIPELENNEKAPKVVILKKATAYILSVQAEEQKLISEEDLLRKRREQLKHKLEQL
# Method: protein-binding microarray
# Form: double-stranded DNA, one strand shown
# Medium: in vitro
# Concentration: not given
# Setting: k-mer, scored over probes, only values ≥0.25
# Reading: higher = stronger binding
Sequence,E-score
GACACGCC,0.37
CACGCGTG,0.455
CCGCATGA,0.383

# Block 2
# Target: Sal-like protein 4, full length isoform B (SALL4, Homo sapiens, UniProt Q9UJQ4-2, residues 1-616)
# Method: universal PBM
# Form: double-stranded DNA, one strand shown
# Medium: in vitro
# Concentration: not given
# Setting: 8-mer, flanks averaged, mean of replicates
# Reading: higher = stronger binding
Sequence,E-score
CGTACAAA,0.126
GCGGTGCA,-0.252
ACCGGCCG,-0.311

# Single results of other studies
# RBFOX2 RRM domain, GST-SBP tag: RNA binding protein fox-1 homolog 2, RRM domain, GST-SBP tag (RBFOX2, Homo sapiens, UniProt O43251-10, residues 100-194)
Substance,target,assay,test system,setting,how to read,measurement,result
GGGAGUUCUACAGUCCGACGAUCGCAGCUUCCUUGACAGACAGGUUCUUGGACCCAGGCACCAACAUUCCAAGGGACACCAGCCAACCUGGGUGAGGGCCCGACUCUGUAUGUCUUCCCUUCCCUGGGGGGGGUGGAAUUCUCGGGUGCCAA,"RBFOX2 RRM domain, GST-SBP tag",RNA Bind-n-Seq,"RNA, in vitro","365 nM, natural RNA segment, single round, ends assumed","baseline: no-protein control, higher = stronger binding",RBNS enrichment (R),0.338
"PhoQ, residues 284 288 289 292 302 303 TNASYF","PhoP, residues 12 14 15 18 19 LHHVQ (Escherichia coli, UniProt P23836)","Sort-seq, refers to: YFP reporter",E. coli,"PhoQ-PhoP variant library, added: 10 µM Mg2+","baseline: high Mg2+ state, higher = stronger signaling",fold induction,10.7
GGGAGUUCUACAGUCCGACGAUCGCUCUUGAGCAAGUUGGGACUUGGGCCGGGGCCUGGAAGAAUGAUUGGCUGGGAGGCCGCGGGAGGGAGGCCAGGAGGCCCGGACCAGUUGGGAGGAGUGAGCAGGCCCCUGGAAUUCUCGGGUGCCAA,"RBFOX2 RRM domain, GST-SBP tag",RNA Bind-n-Seq,"RNA, in vitro","365 nM, natural RNA segment, single round, ends assumed","baseline: no-protein control, higher = stronger binding",RBNS enrichment (R),1.31
GGGAGUUCUACAGUCCGACGAUCAGAAUGGGUUCAACAGGGAGUGGAGAGUGAAGCUAAUGUAAAAUAGUUUAGUGGCAGUGGGAAUCUUUGGACUUCAUUUACCUCUCUCAUUAUUUCUAUUACCAUGGAUAUGGAAUUCUCGGGUGCCAA,"RBFOX2 RRM domain, GST-SBP tag",RNA Bind-n-Seq,"RNA, in vitro","365 nM, natural RNA segment, single round, ends assumed","baseline: no-protein control, higher = stronger binding",RBNS enrichment (R),1.74

# Some of these lines once more (single results of other studies):
Substance,target,assay,test system,setting,how to read,measurement,result
GGGAGUUCUACAGUCCGACGAUCAGAAUGGGUUCAACAGGGAGUGGAGAGUGAAGCUAAUGUAAAAUAGUUUAGUGGCAGUGGGAAUCUUUGGACUUCAUUUACCUCUCUCAUUAUUUCUAUUACCAUGGAUAUGGAAUUCUCGGGUGCCAA,"RBFOX2 RRM domain, GST-SBP tag",RNA Bind-n-Seq,"RNA, in vitro","365 nM, natural RNA segment, single round, ends assumed","baseline: no-protein control, higher = stronger binding",RBNS enrichment (R),1.74
